Experimental data from different studies.
Every numbered part comes from another study and shows a few of its results, in no order. Substitutions count along the parent as printed.

Series 1
Target: JUNB, bZIP domain (human)
Technique: DHFR protein complementation
Medium: yeast
Notes: single substitutions, most at no-binding floor
Reference: wild-type JUN-FOS pair
Reading: higher = stronger binding
Starting sequence: JUN, bZIP domain (human); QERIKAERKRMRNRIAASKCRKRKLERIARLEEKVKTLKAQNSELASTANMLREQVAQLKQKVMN; partner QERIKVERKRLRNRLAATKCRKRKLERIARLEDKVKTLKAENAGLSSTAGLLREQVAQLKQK
| Variant | binding fitness |
| --- | --- |
| R30V | -0.99 natural log |
| L45E | -1.63 natural log |
| L31W | -1.52 natural log |
| E33C | -1.35 natural log |
| E44G | -1.32 natural log |
| I28R | -1.4 natural log |
| E32T | -1.29 natural log |
| N42E | -1.4 natural log |
| T48E | -0.85 natural log |
| L59W | -1.08 natural log |
| L31T | -1.57 natural log |
| T48I | -1.08 natural log |
| A40D | -1.25 natural log |
| S43T | -1 natural log |
| K34D | -1.14 natural log |
| R30Q | -0.929 natural log |
| E44S | -1.23 natural log |
| S43R | -0.861 natural log |
| L38H | -1.45 natural log |
| R30L | -0.924 natural log |
| A46G | -1.42 natural log |
| K36H | -1.38 natural log |
| K36A | -1.04 natural log |
| E44D | -1.35 natural log |

Series 2
Target: Histone acetyltransferase KAT6A, winged helix 2, GST fusion (KAT6A, Homo sapiens, UniProt Q92794, residues 85-181)
Technique: protein binding microarray
Molecule type: double-stranded DNA, one strand shown
Medium: in vitro
Concentration: not given
Notes: 8-mer, flanks averaged, mean of 2 arrays, mostly near background
Reference: not given
Reading: higher = stronger binding
Residues (chain): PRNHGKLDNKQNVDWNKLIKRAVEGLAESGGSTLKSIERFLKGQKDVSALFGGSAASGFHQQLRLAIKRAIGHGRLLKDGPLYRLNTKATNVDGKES
| Strand | E-score |
| --- | --- |
| ATGGGTTC | -0.144 |
| ACTGAAAG | 0.0844 |
| CGGACACG | 0.17 |
| AGCACCGG | 0.0459 |
| TTAAGCAA | 0.0227 |
| CCAACCGC | 0.093 |
| TAAGGGCA | -0.0192 |
| ACTATTGA | 0.0156 |
| ACGACCGC | 0.0407 |
| TAAAATCA | 0.159 |
| CCTCGCTA | -0.154 |
| ATCATCTG | 0.0486 |
| AGACCCGC | 0.0993 |
| GCGGGCGA | 0.199 |
| CGGACGAG | 0.173 |
| ATAATCTA | -0.0704 |

Series 3
Target: ABI1, truncated, D143A, DHFR fusion (Arabidopsis thaliana)
Technique: DHFR PCA, deep sequencing
Medium: yeast
Notes: methotrexate growth selection, single substitutions
Added: (+)-ABA 17 µM
Reference: wild-type fitted maximum
Reading: higher = stronger binding
Starting sequence: PYL1, truncated, DHFR fusion (Arabidopsis thaliana); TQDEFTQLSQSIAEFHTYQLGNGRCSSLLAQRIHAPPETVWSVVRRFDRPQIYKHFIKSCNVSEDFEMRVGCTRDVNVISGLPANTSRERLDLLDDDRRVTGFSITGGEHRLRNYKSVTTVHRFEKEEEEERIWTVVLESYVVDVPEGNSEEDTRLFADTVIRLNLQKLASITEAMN
| Variant | relative binding score |
| --- | --- |
| D96L | 3.38% |
| L8N | 45.6% |
| D95H | 11.2% |
| V44G | -2.74% |
| T17R | 65.2% |
| F103P | -11.5% |
| S63M | 78.1% |
| D95F | 10% |
| Q7A | 85.4% |
| R99C | 81% |
| T6G | 84.6% |
| P50C | 13.4% |
| S104D | -16.3% |
| E128A | 89.4% |

Series 4
Target: Fragile X messenger ribonucleoprotein 1, C-terminal low-complexity region (Fmr1, Mus musculus, UniProt P35922)
Technique: RNA Bind-n-Seq
Molecule type: RNA
Medium: in vitro
Concentration: 200 nM
Notes: whole 134-nt RNA, ends assumed
Added: 150 mM KCl
Reference: input library
Reading: higher = stronger binding
All sequences stand within: GGGAGUUCUACAGUCCGACGAUC … UGGAAUUCUCGGGUGUCAAGG
| Strand | log2 enrichment |
| --- | --- |
| AGUCCUGUGCUACACAUCGUAUGUACCGAAUCGGGUGGGAAAAAGGGUUUUUUUGGGAAAGUAUUAUGUUACGCCGUUCGGAUCUGCACU | 0.454 |
| CACAGACAACACGCACCCACACAGACACAGAGGGAAGGGGUUGGGAUGGGGACAGGGUGCACAGCGGGGCGGGGUAGGACCCCAGCCCCU | 1.37 |
| UGGGAGCUGGAUUUUGUUUAUUUUUUUAGCUCAUUUCCAGGGGUGGGAAUUUUUUUUUAAUAUGUGUCAUGAAUAAAGUUGUUUUUGAAA | -0.641 |
| UUGUUUAGCAAUCAAGGAGACCGCGAAGGCGUACAUUCCCGGGUGUUGCUUCCAGGAGAAACCCUGAACGGAGAGCUCGUCCUCUUACCA | -0.594 |
| CAAGUCCUGUGCUACACAUCGUAUGUACCGAAUCGGGGAGGGGAGGGGUUUGGGGAAAGUAUUAUGUUACGCCGUUCGGAUCUGCACUUC | 1.23 |
| UCAAGUCCUGUGCUACACAUCGUAUGUACCGAAUCGGUUUGGUUUUUGGUUUGGAAAGUAUUAUGUUACGCCGUUCGGAUCUGCACUUCC | -0.548 |
| UGGCCCUGGUGGCAUGCGGGGAGGAAGAGGUGGCCUCAUGGAUCGUGGUGGUCCCGGUGGAAUGUUCAGAGGUGGCCGUGGUGGAGUCAG | 0.0353 |
| CCUGUGCUACACAUCGUAUGUACCGAAUCGGUUUUUUGGGGUUUUUUGGGGUUUUUUGGGGAAAGUAUUAUGUUACGCCGUUCGGAUCUG | -0.638 |
| CCUGUGCUACACAUCGUAUGUACCGAAUCGGCCCCCCCGGCCCCCCCGGCCCCCCCGGGGAAAGUAUUAUGUUACGCCGUUCGGAUCUGC | 0.147 |

Series 5
Target: CCNA2, cyclin fold, Cln2 fusion (human)
Technique: yeast growth competition, sequencing
Medium: yeast
Notes: weak parent motif
Reference: not given
Reading: higher = stronger binding
Starting sequence: MASTL docking peptide (human); PMIAKNLMCELDE
| Variant | normalised enrichment score |
| --- | --- |
| L7V | -0.556 |
| C9E | -0.601 |
| M8E | -0.305 |
| L11C | -0.316 |
| I3S | -0.438 |
| L11S | -0.13 |
| C9R | 0.209 |
| L11A | -0.262 |
| I3T | -0.107 |
| L11K | -0.155 |
| I3A | 0.0427 |
| M8G | -0.527 |
| D12A | 0.473 |
| D12E | -0.172 |
| D12Y | -0.31 |
| M8F | 0.21 |
| C9K | -0.0637 |
| M2A | 0.114 |
| A4D | 0.0694 |
| L11V | -0.327 |
| L7W | -0.602 |
| L11H | -0.0649 |
| K5W | -0.117 |
| I3K | 0.0286 |
| L7P | -0.203 |

Excerpt of the above (series 4):
| Strand | log2 enrichment |
| --- | --- |
| UUGUUUAGCAAUCAAGGAGACCGCGAAGGCGUACAUUCCCGGGUGUUGCUUCCAGGAGAAACCCUGAACGGAGAGCUCGUCCUCUUACCA | -0.594 |
| CAAGUCCUGUGCUACACAUCGUAUGUACCGAAUCGGGGAGGGGAGGGGUUUGGGGAAAGUAUUAUGUUACGCCGUUCGGAUCUGCACUUC | 1.23 |
| UCAAGUCCUGUGCUACACAUCGUAUGUACCGAAUCGGUUUGGUUUUUGGUUUGGAAAGUAUUAUGUUACGCCGUUCGGAUCUGCACUUCC | -0.548 |
| UGGCCCUGGUGGCAUGCGGGGAGGAAGAGGUGGCCUCAUGGAUCGUGGUGGUCCCGGUGGAAUGUUCAGAGGUGGCCGUGGUGGAGUCAG | 0.0353 |
| CCUGUGCUACACAUCGUAUGUACCGAAUCGGUUUUUUGGGGUUUUUUGGGGUUUUUUGGGGAAAGUAUUAUGUUACGCCGUUCGGAUCUG | -0.638 |
